# Experimental data from different studies.
# A part holds a random share of what one study measured. Several values in a cell are separate wells, animals, samples, runs or records.
# UniProt P46934, sequence (whole entry, looked up): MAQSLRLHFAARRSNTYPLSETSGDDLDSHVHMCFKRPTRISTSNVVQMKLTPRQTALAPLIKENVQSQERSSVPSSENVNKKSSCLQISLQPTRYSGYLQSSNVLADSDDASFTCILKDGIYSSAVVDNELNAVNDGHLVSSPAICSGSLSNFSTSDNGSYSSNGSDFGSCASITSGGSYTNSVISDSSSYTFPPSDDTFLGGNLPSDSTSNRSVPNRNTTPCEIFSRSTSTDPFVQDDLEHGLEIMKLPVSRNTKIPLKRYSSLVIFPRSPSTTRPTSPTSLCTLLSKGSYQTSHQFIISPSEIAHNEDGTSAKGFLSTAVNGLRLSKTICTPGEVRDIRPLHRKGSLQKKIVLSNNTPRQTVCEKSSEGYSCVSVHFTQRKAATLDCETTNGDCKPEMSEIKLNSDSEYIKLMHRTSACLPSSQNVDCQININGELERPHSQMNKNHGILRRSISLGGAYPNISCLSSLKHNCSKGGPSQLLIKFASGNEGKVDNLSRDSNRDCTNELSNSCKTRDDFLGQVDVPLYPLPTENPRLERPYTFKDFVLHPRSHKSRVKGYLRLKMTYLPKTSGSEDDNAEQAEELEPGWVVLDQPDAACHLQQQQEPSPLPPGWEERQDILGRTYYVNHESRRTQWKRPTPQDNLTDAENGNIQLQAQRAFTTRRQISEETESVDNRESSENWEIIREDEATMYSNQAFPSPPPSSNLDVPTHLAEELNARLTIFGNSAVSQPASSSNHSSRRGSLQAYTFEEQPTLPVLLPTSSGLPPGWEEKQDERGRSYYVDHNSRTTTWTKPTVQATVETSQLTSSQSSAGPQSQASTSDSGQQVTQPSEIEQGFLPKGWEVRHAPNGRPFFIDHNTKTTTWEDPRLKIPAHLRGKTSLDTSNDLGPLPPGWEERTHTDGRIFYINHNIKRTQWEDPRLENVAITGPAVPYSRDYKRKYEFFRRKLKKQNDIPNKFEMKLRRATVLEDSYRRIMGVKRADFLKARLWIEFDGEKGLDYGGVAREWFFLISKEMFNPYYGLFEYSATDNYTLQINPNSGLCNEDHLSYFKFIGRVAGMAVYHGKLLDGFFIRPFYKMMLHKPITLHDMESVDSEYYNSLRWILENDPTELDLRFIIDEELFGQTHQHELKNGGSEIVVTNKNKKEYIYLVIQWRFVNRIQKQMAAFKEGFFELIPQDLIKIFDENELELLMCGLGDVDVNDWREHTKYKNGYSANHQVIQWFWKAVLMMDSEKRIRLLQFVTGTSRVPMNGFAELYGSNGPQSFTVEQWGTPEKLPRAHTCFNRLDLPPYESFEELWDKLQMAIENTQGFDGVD
# UniProt P9WI81, sequence (whole entry, looked up): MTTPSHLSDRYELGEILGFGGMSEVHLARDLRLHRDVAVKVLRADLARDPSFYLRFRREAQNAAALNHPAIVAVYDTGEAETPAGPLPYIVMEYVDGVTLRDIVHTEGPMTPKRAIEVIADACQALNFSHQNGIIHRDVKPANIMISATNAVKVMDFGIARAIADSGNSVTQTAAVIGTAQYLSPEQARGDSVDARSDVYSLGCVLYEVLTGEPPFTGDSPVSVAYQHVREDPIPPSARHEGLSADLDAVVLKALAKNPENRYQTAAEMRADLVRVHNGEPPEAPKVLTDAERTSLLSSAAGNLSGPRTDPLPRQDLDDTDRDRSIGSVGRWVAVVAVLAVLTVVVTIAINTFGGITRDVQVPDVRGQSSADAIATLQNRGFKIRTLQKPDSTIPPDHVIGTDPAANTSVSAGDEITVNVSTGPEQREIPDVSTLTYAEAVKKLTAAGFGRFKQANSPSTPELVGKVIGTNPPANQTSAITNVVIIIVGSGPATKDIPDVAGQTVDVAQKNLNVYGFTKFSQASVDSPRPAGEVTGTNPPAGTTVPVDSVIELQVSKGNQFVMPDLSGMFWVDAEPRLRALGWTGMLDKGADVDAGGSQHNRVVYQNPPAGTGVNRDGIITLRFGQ

# Block 1
# SMILES: Cn1cc(-c2cccc(CN3CCC4(CC3)COc3c4ccc4c3CN([C@H]3CCC(=O)NC3=O)C4=O)c2)cn1
# Host: Crbn I391V mouse, MC-38 tumour
conditions,body weight change
"oral, 30 mg/kg once daily, day 22",0.4% and 1.5% and -3.6% and 5.1% and 2.1%
"30 mg/kg, day 13, with: anti-LAG3 antibody 10 mg/kg weekly",10.1% and 0% and -2.5% and -1%
"30 mg/kg, day 41, with: anti-LAG3 antibody 10 mg/kg weekly",8.2%
"oral, 30 mg/kg once daily, day 3",-2.5% and -0.5% and -0.8% and -2%
"30 mg/kg, day 48, with: anti-LAG3 antibody 10 mg/kg weekly",11.9%
"oral, daily, 30 mg/kg, day 22, anti-PD1 combination study",-1.1% and 6.3% and 9% and 4.5% and -0.3%
"30 mg/kg, day 44, with: anti-LAG3 antibody 10 mg/kg weekly",9.9%

# Single results of other studies
Compound,target or system,assay,system,conditions,scale,measurement,result
CCOC(=O)/C=C/CN(CCCCN1c2ccccc2CCc2ccc(Cl)cc21)Cc1ccccc1.O=C(O)/C=C\C(=O)O,"E3 ubiquitin-protein ligase NEDD4, HECT domain (Homo sapiens, UniProt P46934)","enzyme activity, inhibitor, Ub-TR-FRET",HECT domain,100 µM,higher = more chain formation,ubiquitin chain formation AUC,111000 a.u. and 123000 a.u. and 119000 a.u. and 112000 a.u. and 124000 a.u. and 110000 a.u.
"CCC1(c2cccc(-c3cn(C)nc3C)c2)C2=C(Nc3n[nH]cc31)C(F)C(C)(C)CC2=O (single isomer, unassigned)","pknB (Mycobacterium tuberculosis, UniProt P9WI81)","binding, competition with immobilised ligand",,1 µM,,remaining binding,100%
N=C(N)NCCCCCCN1CCC23c4c5ccc(O)c4OC2c2nc4ccccc4cc2CC3(O)C1C5 (centres unmarked),,modified Racine scale,"C57BL/6J mice, male","intracerebroventricular, 100 nmol, 40 min",direction not given,seizure score,0
C=CCN1C(=O)C(O)(C(=O)O)Oc2cc(F)ccc21 (centres unmarked),Arabidopsis thaliana,root length,Col-0,"12.5 µg/mL, 7 days, seed germination, dark",,inhibition,14.5%
CC(C)(C)n1nc(-c2ccc(Cl)cc2)c2c(N)ncnc21,L929,"necroptosis protection, CCK-8",,"0.078 µM, with: TNF-α-induced",,viability,31.7%
CCCN1C(=O)C(O)(C(=O)O)Oc2cc(F)ccc21 (centres unmarked),Triticum aestivum,fresh weight,,"soil surface spray, 150 g ai/ha, 21 days, pre-emergence crop safety",,inhibition,10% and 12.4% and 11%
O=[N+]([O-])c1ccc(C2=NOC3(NC(c4ccccc4)=NO3)N2c2ccccc2)cc1 (centres unmarked),Plasmodium falciparum,,SB1-A6 atovaquone-resistant,,baseline: IC50 SB1-A6 over 3D7,resistance index,> 300 and 333

# Excerpt of the above (block 1):
conditions,body weight change
"oral, daily, 30 mg/kg, day 22, anti-PD1 combination study",-1.1% and 6.3% and 9% and 4.5% and -0.3%
